Experimental data from different studies.
± gives the spread as reported.
GPR84: G-protein coupled receptor 84 (GPR84, Homo sapiens, UniProt Q9NQS5)
UniProt Q9NQS5, sequence (whole entry, looked up): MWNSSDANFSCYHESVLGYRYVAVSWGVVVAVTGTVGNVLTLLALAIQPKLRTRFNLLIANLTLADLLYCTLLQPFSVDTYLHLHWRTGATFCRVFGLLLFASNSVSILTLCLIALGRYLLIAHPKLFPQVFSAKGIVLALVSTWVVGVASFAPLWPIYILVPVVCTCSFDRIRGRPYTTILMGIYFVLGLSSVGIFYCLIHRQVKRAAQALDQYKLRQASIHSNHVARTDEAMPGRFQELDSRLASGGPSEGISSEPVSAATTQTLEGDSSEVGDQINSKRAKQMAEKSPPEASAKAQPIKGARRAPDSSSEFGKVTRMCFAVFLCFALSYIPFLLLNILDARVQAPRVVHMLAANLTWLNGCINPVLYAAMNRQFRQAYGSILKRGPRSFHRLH
BRAP ZnF-UBD domain: BRCA1-associated protein, ZnF-UBD domain (BRAP, Homo sapiens, UniProt Q7Z569)
UniProt Q7Z569, sequence (whole entry, looked up): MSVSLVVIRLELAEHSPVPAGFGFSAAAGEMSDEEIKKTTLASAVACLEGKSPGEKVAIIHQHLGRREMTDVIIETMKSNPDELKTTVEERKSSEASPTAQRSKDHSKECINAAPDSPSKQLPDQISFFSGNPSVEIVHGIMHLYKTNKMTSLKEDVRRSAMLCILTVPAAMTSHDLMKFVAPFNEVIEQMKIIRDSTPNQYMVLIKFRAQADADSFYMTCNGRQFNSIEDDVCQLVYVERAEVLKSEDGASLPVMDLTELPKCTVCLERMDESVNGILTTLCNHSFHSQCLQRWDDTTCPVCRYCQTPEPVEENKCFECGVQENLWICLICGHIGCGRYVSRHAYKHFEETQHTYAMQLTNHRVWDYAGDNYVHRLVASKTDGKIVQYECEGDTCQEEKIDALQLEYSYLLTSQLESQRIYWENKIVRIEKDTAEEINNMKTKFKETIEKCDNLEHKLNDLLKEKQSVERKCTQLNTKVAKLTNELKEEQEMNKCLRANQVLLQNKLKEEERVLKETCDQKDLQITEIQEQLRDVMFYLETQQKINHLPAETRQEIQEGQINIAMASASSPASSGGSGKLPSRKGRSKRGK
Sortilin: Sortilin (Homo sapiens, UniProt Q99523)
UniProt Q99523, sequence (whole entry, looked up): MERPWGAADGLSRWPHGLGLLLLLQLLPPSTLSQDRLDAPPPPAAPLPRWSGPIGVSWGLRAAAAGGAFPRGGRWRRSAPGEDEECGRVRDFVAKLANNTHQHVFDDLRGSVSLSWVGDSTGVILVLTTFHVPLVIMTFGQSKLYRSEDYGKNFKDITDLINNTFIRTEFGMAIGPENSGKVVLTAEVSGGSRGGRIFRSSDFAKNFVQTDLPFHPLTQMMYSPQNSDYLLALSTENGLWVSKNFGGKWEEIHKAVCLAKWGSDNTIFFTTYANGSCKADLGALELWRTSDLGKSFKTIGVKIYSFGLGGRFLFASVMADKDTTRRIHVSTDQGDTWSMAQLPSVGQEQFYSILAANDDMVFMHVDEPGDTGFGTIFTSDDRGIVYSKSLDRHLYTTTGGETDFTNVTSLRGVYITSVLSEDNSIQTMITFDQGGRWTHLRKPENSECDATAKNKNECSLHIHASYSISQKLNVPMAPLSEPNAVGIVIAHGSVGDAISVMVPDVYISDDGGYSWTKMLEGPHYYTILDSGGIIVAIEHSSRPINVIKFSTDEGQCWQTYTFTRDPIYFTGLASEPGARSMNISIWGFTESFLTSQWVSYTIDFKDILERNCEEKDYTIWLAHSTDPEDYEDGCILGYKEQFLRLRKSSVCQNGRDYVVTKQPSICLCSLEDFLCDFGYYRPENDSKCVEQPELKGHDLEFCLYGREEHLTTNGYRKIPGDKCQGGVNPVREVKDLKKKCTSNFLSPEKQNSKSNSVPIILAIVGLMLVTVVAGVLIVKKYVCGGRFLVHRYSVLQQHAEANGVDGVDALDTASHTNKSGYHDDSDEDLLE
ESR2: Estrogen receptor beta (ESR2, Homo sapiens, UniProt Q92731)
UniProt Q92731, sequence (whole entry, looked up): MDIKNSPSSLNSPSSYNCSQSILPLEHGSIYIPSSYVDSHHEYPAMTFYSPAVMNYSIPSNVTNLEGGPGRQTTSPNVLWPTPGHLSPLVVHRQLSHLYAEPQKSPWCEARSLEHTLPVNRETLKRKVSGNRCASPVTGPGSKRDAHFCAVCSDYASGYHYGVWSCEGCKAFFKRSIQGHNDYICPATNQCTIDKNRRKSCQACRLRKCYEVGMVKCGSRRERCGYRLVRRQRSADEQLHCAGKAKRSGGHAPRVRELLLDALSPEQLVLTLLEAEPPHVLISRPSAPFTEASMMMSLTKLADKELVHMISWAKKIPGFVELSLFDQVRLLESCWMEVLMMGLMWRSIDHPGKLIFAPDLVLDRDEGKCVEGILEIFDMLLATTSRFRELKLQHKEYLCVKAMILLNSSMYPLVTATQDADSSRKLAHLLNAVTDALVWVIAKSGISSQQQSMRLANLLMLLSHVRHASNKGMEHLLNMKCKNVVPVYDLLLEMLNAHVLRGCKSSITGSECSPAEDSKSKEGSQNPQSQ
VCP: Transitional endoplasmic reticulum ATPase (VCP, Homo sapiens, UniProt P55072)
UniProt P55072, sequence (whole entry, looked up): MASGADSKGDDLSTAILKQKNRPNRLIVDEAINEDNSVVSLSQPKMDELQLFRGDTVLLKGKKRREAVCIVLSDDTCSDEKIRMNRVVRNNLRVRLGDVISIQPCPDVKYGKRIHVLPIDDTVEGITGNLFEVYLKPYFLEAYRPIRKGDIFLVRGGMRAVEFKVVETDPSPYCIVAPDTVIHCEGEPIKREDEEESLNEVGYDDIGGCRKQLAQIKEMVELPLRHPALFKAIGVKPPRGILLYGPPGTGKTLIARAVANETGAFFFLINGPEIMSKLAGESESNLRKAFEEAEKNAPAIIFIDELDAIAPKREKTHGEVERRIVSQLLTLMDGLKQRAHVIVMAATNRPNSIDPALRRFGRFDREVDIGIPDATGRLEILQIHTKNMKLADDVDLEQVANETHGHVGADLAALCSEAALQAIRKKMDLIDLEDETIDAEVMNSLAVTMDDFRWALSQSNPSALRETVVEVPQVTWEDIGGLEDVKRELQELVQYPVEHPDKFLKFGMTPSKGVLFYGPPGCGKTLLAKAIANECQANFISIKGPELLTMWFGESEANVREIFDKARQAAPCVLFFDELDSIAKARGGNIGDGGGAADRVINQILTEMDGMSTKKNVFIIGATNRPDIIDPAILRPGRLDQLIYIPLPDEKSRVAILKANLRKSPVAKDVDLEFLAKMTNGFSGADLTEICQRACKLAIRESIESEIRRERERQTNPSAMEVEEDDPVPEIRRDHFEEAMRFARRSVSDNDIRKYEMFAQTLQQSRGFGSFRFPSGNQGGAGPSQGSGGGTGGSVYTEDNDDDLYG
UniProt P56524, sequence (whole entry, looked up): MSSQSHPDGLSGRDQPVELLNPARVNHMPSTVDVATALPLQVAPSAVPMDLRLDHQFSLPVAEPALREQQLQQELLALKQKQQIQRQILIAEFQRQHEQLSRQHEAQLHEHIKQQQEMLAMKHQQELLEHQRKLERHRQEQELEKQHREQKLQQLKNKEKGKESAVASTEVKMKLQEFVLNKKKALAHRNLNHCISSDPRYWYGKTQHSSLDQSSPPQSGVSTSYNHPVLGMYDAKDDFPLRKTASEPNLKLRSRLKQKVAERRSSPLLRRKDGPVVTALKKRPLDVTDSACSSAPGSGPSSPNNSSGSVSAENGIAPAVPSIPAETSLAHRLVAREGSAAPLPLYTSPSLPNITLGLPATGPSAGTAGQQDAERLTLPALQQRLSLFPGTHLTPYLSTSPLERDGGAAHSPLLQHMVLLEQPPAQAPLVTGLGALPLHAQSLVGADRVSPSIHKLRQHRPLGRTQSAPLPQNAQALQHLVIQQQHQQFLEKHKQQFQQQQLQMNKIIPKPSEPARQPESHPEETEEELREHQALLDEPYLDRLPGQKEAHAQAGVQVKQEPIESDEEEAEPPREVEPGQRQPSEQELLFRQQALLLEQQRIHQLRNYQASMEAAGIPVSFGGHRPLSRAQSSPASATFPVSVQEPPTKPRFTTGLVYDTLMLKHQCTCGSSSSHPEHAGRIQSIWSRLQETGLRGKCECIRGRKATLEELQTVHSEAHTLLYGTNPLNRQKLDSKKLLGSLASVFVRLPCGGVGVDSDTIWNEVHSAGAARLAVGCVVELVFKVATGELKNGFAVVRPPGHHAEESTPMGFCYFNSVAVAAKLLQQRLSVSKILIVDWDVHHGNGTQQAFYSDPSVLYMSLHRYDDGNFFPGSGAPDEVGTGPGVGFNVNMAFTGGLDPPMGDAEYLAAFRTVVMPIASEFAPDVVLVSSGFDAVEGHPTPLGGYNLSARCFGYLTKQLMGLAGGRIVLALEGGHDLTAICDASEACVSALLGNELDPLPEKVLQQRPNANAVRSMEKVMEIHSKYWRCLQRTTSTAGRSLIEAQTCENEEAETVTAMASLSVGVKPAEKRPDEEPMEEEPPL
UniProt P28223, sequence (whole entry, looked up): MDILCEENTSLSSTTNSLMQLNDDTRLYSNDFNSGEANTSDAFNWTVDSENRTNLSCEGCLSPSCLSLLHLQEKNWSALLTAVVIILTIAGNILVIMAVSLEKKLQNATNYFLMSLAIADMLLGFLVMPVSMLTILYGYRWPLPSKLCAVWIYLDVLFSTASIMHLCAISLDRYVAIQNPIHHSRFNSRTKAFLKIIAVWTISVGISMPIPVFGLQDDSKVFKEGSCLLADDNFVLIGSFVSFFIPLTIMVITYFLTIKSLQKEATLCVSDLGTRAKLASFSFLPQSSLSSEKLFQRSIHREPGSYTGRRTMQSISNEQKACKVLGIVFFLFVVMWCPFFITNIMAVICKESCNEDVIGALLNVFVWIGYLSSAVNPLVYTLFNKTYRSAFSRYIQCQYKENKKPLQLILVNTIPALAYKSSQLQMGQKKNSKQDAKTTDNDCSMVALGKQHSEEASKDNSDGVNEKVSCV
UniProt P41227, sequence (whole entry, looked up): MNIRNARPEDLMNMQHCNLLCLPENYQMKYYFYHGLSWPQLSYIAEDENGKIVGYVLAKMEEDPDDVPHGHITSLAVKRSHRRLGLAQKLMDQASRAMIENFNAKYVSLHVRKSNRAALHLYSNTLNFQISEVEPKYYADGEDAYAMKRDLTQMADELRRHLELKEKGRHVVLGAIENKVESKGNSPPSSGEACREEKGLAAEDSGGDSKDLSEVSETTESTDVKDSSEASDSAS

SMILES	target	assay	test system	setting	measurement	result
CNC(=O)[C@@]12C[C@@H]1[C@@H](n1cnc3c(NC)nc(C#C[c-]4cccc4)nc31)[C@H](O)[C@@H]2O.[Fe+2].c1cc[cH-]c1	5-hydroxytryptamine receptor 2C (HTR2C, Homo sapiens, UniProt P28335)	radioligand binding (PDSP)	–	–	Ki	0.277 µM
O=c1cc(NCCc2ccc(Cl)cc2Cl)[nH]c(=O)[nH]1	GPR84	agonist	–	–	EC50	0.0821 ± 0.0348 µM
COc1ccc(C=C2SC(=O)N(C(C)C(=O)O)C2=O)cc1 (centres unmarked)	BRAP ZnF-UBD domain	–	–	–	Kd	> 1000 µM
O=c1cc(NCCc2ccc(F)cc2)[nH]c(=O)[nH]1	GPR84	agonist	–	–	EC50	1.95 µM
C=C1CN(S(=O)(=O)c2ccc(C)cc2)CCc2cc(-c3ccccc3)cc(n2)CCN(S(=O)(=O)c2ccc(C)cc2)C1	Sortilin	protein expression, flow cytometry	HEK-293T expressing sortilin-GFP	24 h	DC50	4 ± 2 µM
O=c1cc(NCCc2cccs2)[nH]c(=O)[nH]1	GPR84	agonist	–	–	EC50	1.2 µM
O=c1cc(-c2ccccc2)oc2cc(O[C@@H]3O[C@H](CO[C@@H]4O[C@H](CO)[C@@H](O)[C@H](O)[C@H]4O)[C@@H](O)[C@H](O)[C@H]3O)c(O)c(O)c12	ESR2	array formation, agonist	GFP-ERβ PRL-HeLa	1 h	EC50	0.144 µM
O=C(O)CCn1nnc(-c2ccccc2)n1	BRAP ZnF-UBD domain	–	–	–	Kd	> 1000 µM
COc1cc(Nc2ncc3c(n2)-c2ccc(Cl)cc2C(c2c(F)cccc2OC)=NC3)ccc1C(=O)NCCOCCOCCNC(=O)COc1cccc2c1C(=O)N(C1CCC(=O)NC1=O)C2=O (centres unmarked)	Aurora kinase B, with INCENP (AURKB, Homo sapiens, UniProt Q96GD4)	binding, kinobead competition	MV4-11 cell lysate	–	EC50	2.92 µM
COc1ccccc1/C=C/C(=O)c1ccccc1O	ESR2	array formation, agonist	GFP-ERβ PRL-HeLa	1 h	EC50	5.35 µM
COc1cccc2c(NCc3ccc(O)cc3)nc(N3CCOc4ccccc43)nc12	VCP	enzyme activity, inhibitor	–	–	IC50	2.4 ± 0.5 µM
O=C(O)CCc1cnccn1	BRAP ZnF-UBD domain	–	–	–	Kd	> 1000 µM
COc1ccc(-c2nc(NCc3ccc(C)cc3)c3ccccc3n2)cc1	VCP	enzyme activity, inhibitor	–	–	IC50	8 ± 2 µM
CC(C)(COP(=O)(O)OP(=O)(O)OC[C@H]1O[C@@H](n2cnc3c(N)ncnc32)[C@H](O)[C@@H]1OP(=O)(O)O)[C@@H](O)C(=O)NCCC(=O)NCCS	N-alpha-acetyltransferase 10 (Homo sapiens, UniProt P41227)	competitor, competition MS pulldown	SW-620 cell lysate	with: photo-immobilized beads	Kd	1.38 µM
Clc1ccc(Nc2nc(NCc3ccccc3)c3ccccc3n2)cc1	VCP	enzyme activity, inhibitor	–	–	IC50	5.4 ± 2 µM
O=c1[nH]c(NCCc2ccc(Br)cc2)c(Br)c(=O)[nH]1	GPR84	cAMP level, agonist	human cells	–	EC50	0.368 ± 0.016 µM
CCCN(CCCCOCCOCCOCCOCCOCC(=O)N[C@H](C(=O)N1C[C@H](O)C[C@H]1C(=O)NCc1ccc(-c2scnc2C)cc1)C(C)(C)C)C[C@@H](C)NC(=O)c1ccc(-c2noc(C(F)(F)F)n2)cc1	Histone deacetylase 4 (HDAC4, Homo sapiens, UniProt P56524)	degrader, western blot	SH-SY5Y	without elacridar	DC50	0.358 µM
Nc1nc2ccccc2n1-c1nccc(NCc2ccccc2)n1	VCP	enzyme activity, inhibitor	–	–	IC50	2.8 ± 0.6 µM
CCc1oc2c([C@H](CO)N(CC)CC)cccc2c1C	Lysophosphatidic acid receptor 1 (LPAR1, Homo sapiens, UniProt Q92633, Q125A)	Gi protein dissociation, agonist, NanoBiT	HEK293T	–	EC50	0.0065 µM
COc1ccc(-c2oc3c(CC=C(C)C)c(O[C@@H]4O[C@H](CO)[C@@H](O)[C@H](O)[C@H]4O)cc(O)c3c(=O)c2O)cc1	ESR2	array formation, agonist	GFP-ERβ PRL-HeLa	1 h	EC50	4.39 µM
N#C[C@@]12C[C@@H]1[C@@H](n1cnc3c(NC4CCCC4)nc(I)nc31)[C@H](O)[C@@H]2O	5-hydroxytryptamine receptor 2A (HTR2A, Homo sapiens, UniProt P28223)	antagonist, Gq dissociation BRET	–	human receptor	Kb	6.71 µM

SMILES	target	assay	test system	setting	measurement	result
O=C(O)CCC(=O)Nc1cccc2ccccc12	BRAP ZnF-UBD domain	–	–	–	Kd	66 µM
CCCCCCNc1[nH]c(=O)[nH]c(=O)c1Br	GPR84	cAMP level, agonist	human cells	–	EC50	7.37 ± 1.57 µM
c1ccc(CNc2nc(N3CCN(c4ccccc4)CC3)nc3ccccc23)cc1	VCP	enzyme activity, inhibitor	–	–	IC50	34 ± 11 µM
O=c1c(O)c(-c2ccccc2)oc2cc(O)cc(O)c12	ESR2	array formation, agonist	GFP-ERβ PRL-HeLa	1 h	EC50	4.41 µM
NC(=O)c1cc(-n2c(CCC(=O)O)nc3ccccc32)cs1	BRAP ZnF-UBD domain	–	–	–	Kd	> 1000 µM
O=c1cc(-c2ccccc2)oc2ccc(O)cc12	ESR2	array formation, agonist	GFP-ERβ PRL-HeLa	1 h	EC50	2.63 µM
O=C(O)Cn1cc2ccccc2n1	BRAP ZnF-UBD domain	–	–	–	Kd	411 µM
Brc1ccc(-c2nc(NCc3ccccc3)c3ccccc3n2)cc1	VCP	enzyme activity, inhibitor	–	–	IC50	72 ± 14 µM
O=C(O)CCc1ccccc1	BRAP ZnF-UBD domain	–	–	–	Kd	82.9 µM
C=C1CN(S(=O)(=O)c2ccc(C)cc2)CCCN(CCc2ccccc2)CCCN(S(=O)(=O)c2ccc(C)cc2)C1	Sortilin	protein expression, flow cytometry	HEK-293T expressing sortilin-GFP	24 h	DC50	1 ± 0.3 µM
O=c1cc(-c2ccc(O)cc2)oc2cccc(O)c12	ESR2	array formation, agonist	GFP-ERβ PRL-HeLa	1 h	EC50	0.244 µM
O=c1cc(NCCc2ccccc2Cl)[nH]c(=O)[nH]1	GPR84	agonist	–	–	EC50	1.32 ± 0.09 µM
O=C(O)CNC(=O)c1ccc(S(=O)(=O)N2CCC(n3c(=O)oc4ccccc43)CC2)cc1	BRAP ZnF-UBD domain	–	–	–	Kd	> 1000 µM
COc1ccc([C@@H]2CC(=O)c3c(O)cc(O[C@@H]4O[C@H](CO[C@@H]5O[C@@H](C)[C@H](O)[C@@H](O)[C@H]5O)[C@@H](O)[C@H](O)[C@H]4O)cc3O2)cc1O	ESR2	array formation, agonist	GFP-ERβ PRL-HeLa	1 h	EC50	0.947 µM
C=C1CN(S(=O)(=O)c2ccc(C)cc2)CCCN(CC2CCCCC2)CCCN(S(=O)(=O)c2ccc(OCCO)cc2)C1	Sortilin	protein expression, flow cytometry	HEK-293T expressing sortilin-GFP	24 h	DC50	9 ± 1 µM
Cc1cccc(-c2nc(NCc3ccc(F)cc3)c3ccccc3n2)c1	VCP	enzyme activity, inhibitor	–	–	IC50	15 ± 2 µM
O=c1cc(NCCCOc2ccccc2)[nH]c(=O)[nH]1	GPR84	agonist	–	–	EC50	0.182 µM
CN1CCN(c2nc(NCc3ccccc3)c3ccccc3n2)CC1	VCP	enzyme activity, inhibitor	–	–	IC50	53 ± 18 µM
CCc1ccc(CCNc2cc(=O)[nH]c(=O)[nH]2)cc1	GPR84	cAMP	–	–	EC50	0.00427 µM
O=c1c(O)c(-c2cc(O)c(O)c(O)c2)oc2cc(O)cc(O)c12	ESR2	array formation, agonist	GFP-ERβ PRL-HeLa	1 h	EC50	0.194 µM

Repeated from above:
SMILES	target	assay	test system	setting	measurement	result
Clc1ccc(Nc2nc(NCc3ccccc3)c3ccccc3n2)cc1	VCP	enzyme activity, inhibitor	–	–	IC50	5.4 ± 2 µM
O=c1[nH]c(NCCc2ccc(Br)cc2)c(Br)c(=O)[nH]1	GPR84	cAMP level, agonist	human cells	–	EC50	0.368 ± 0.016 µM
CCCN(CCCCOCCOCCOCCOCCOCC(=O)N[C@H](C(=O)N1C[C@H](O)C[C@H]1C(=O)NCc1ccc(-c2scnc2C)cc1)C(C)(C)C)C[C@@H](C)NC(=O)c1ccc(-c2noc(C(F)(F)F)n2)cc1	Histone deacetylase 4 (HDAC4, Homo sapiens, UniProt P56524)	degrader, western blot	SH-SY5Y	without elacridar	DC50	0.358 µM
